{"data": "Measured values from different studies", "note": "Each numbered part is a random draw from the data of one study; scales do not carry over between parts."}
{"data": "Sample 1", "target": "Centromere-binding protein 1, full length, N-terminal tag (CBF1, Saccharomyces cerevisiae, UniProt P17106, residues 1-351)", "method": "protein-binding microarray", "form": "double-stranded DNA, one strand shown", "medium": "in vitro", "tested at": "0.8 µM", "notes": "whole 60-bp probe, no competitor", "direction": "higher = stronger binding", "all sequences stand within": "… GTCTTGATTCGCTTGACGCTGCTG", "sequence of UniProt P17106 (whole entry, looked up)": "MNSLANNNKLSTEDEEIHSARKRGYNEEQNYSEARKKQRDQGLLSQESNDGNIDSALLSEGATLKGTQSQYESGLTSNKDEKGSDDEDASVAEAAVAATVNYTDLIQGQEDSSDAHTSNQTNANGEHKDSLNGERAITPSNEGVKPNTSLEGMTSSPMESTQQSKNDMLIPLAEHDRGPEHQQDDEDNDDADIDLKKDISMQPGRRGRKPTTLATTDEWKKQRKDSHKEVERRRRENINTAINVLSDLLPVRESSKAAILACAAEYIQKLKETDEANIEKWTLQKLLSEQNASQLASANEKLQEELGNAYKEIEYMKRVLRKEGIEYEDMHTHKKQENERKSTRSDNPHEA"}
{"Sequence": "TGTACGAAGCTATATCACGTTAGTATAGTAGTTAGG", "fluorescence intensity [a.u.]": 756}
{"Sequence": "GAAGTAATCAATAATGGCGTGTAACAGTATAATTAG", "fluorescence intensity [a.u.]": 514}
{"Sequence": "CTAGTTTCTTAGATATGCGTGCCTTAAGGCGACTTC", "fluorescence intensity [a.u.]": 531}
{"Sequence": "CCTAACTACTATAATATTATTAAATAGCTTCGTACA", "fluorescence intensity [a.u.]": 529}
{"Sequence": "CTAACTTCCAAAAATCACCCGCTTGCAATGCTGTTC", "fluorescence intensity [a.u.]": 561}
{"Sequence": "GAACGCATTGAGAGGCACGTACGCAAGAAGAAATAG", "fluorescence intensity [a.u.]": 574}
{"Sequence": "GAAGTTTGCAATCATCACCATCTGCACGTTGTTTAG", "fluorescence intensity [a.u.]": 640}
{"Sequence": "CCTAACTACTATAACATCGTGAAATAGCTTCGTACA", "fluorescence intensity [a.u.]": 549}
{"data": "Sample 2", "target": "Interferon regulatory factor 7, full length, phosphomimetic (IRF7, Homo sapiens, UniProt Q92985, residues 1-503, S471D/S472D/S475D/S476D/S477D/S483D/S484D/S487D)", "method": "protein-binding microarray", "form": "double-stranded DNA, one strand shown", "medium": "in vitro", "tested at": "2200 nM top", "notes": "60-bp whole probe", "added": "salmon DNA 0.4 mg/ml", "reference": "random background probes", "direction": "higher = stronger binding", "all sequences stand within": "GCCTAGCAC … GTCTTGATTCGCTTGACGCTGCTG", "Residues (chain)": "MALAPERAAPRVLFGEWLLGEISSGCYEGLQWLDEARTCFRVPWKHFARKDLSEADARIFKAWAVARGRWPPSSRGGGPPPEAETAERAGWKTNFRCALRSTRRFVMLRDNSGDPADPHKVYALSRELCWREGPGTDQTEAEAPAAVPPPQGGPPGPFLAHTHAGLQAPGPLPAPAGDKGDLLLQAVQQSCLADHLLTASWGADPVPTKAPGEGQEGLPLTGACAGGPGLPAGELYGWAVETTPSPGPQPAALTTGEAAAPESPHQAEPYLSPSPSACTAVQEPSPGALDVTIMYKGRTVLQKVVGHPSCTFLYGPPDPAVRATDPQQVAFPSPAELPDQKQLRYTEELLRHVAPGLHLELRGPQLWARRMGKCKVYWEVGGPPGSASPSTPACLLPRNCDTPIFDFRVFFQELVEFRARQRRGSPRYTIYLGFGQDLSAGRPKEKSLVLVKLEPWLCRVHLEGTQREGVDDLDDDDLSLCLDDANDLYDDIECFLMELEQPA"}
{"Sequence": "GACGGACTGGGTATCGAGACGTGCTAG", "fitted relative affinity": "-0.519 z-score"}
{"Sequence": "GACGGTTTCGGGTTTCGGGATGTGCTA", "fitted relative affinity": "9.92 z-score"}
{"Sequence": "TTAGATATCGGGACTCGATTAGTGCTA", "fitted relative affinity": "-0.207 z-score"}
{"Sequence": "TTAGGTTTCGGGTTTCGTTTAGTGCTA", "fitted relative affinity": "10.3 z-score"}
{"Sequence": "TTTGGTATCGACTATCGGTTAGTGCTA", "fitted relative affinity": "1.15 z-score"}
{"data": "Sample 3", "target": "Histone acetyltransferase KAT6A, winged helix 2, GST fusion (KAT6A, Homo sapiens, UniProt Q92794, residues 85-181)", "method": "protein binding microarray", "form": "double-stranded DNA, one strand shown", "medium": "in vitro", "tested at": "not given", "notes": "8-mer, flanks averaged, mean of 2 arrays, mostly near background", "reference": "not given", "direction": "higher = stronger binding", "Target sequence (chain)": "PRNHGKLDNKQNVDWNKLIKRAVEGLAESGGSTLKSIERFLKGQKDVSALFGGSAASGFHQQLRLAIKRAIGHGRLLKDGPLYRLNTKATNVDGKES"}
{"Sequence": "AGAAAGTC", "E-score": -0.156}
{"Sequence": "TAACGGGA", "E-score": -0.0886}
{"Sequence": "CGCCGCAG", "E-score": 0.143}
{"Sequence": "AGTGAAAG", "E-score": 0.114}
{"data": "Mixed results"}
{"Molecule": "PhoQ, residues 284 288 289 292 302 303 HSYLQF", "target": "PhoP, residues 12 14 15 18 19 LYFRQ (Escherichia coli, UniProt P23836)", "assay": "Sort-seq, item: YFP reporter", "system": "E. coli", "conditions": "PhoQ-PhoP variant library, added: 10 µM Mg2+", "how to read": "reference: high Mg2+ state, higher = stronger signaling", "endpoint": "fold induction", "result": 54.5}
{"note": "Some of these lines once more (sample 3):"}
{"Sequence": "CGCCGCAG", "E-score": 0.143}
